{"data": "Experimental data of several laboratories", "note": "A part holds a random share of what one study measured."}
{"data": "Series 1", "target": "Ras GTPase-activating protein-binding protein 1, RRM domain (G3BP1, Homo sapiens, UniProt Q13283)", "technique": "RNA Bind-n-Seq", "form": "RNA", "medium": "in vitro", "tested at": "1 µM", "notes": "whole 134-nt RNA, ends assumed", "together with": "150 mM KCl", "reference": "input library", "direction": "higher = stronger binding", "constant ends, left off below": "GGGAGUUCUACAGUCCGACGAUC … UGGAAUUCUCGGGUGUCAAGG", "chain of UniProt Q13283 (whole entry, looked up)": "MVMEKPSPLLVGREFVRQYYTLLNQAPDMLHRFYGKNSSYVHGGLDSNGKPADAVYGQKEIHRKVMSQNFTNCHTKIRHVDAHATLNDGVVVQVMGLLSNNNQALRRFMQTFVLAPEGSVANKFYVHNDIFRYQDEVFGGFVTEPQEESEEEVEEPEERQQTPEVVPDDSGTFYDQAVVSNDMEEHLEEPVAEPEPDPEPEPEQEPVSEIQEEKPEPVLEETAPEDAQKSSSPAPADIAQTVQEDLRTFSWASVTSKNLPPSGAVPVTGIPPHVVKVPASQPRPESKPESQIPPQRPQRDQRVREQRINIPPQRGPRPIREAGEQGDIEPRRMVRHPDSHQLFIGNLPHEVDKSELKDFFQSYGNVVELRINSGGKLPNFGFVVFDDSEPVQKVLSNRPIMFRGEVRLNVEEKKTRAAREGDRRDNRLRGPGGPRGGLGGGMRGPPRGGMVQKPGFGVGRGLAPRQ"}
{"Oligonucleotide": "GUCCUGUGCUACACAUCGUAUGUACCGAAUCGGCCCCCCGGCCCCCCGGGGCCCCCCGGAAAGUAUUAUGUUACGCCGUUCGGAUCUGCA", "log2 enrichment": -0.385}
{"Oligonucleotide": "UCCUGUGCUACACAUCGUAUGUACCGAAUCGGGGCCCCCGGCCCCCGGGGCCCCCGGGGAAAGUAUUAUGUUACGCCGUUCGGAUCUGCA", "log2 enrichment": -0.772}
{"Oligonucleotide": "UCCUGUGCUACACAUCGUAUGUACCGAAUCGGGUUUUUGGGGUUUUUGGGGUUUUUGGGAAAGUAUUAUGUUACGCCGUUCGGAUCUGCA", "log2 enrichment": 0.119}
{"Oligonucleotide": "GAUCUCCGGGCUCAGUUGCAGAUUCUGGCCAACAUGGACAGCCAGCUAAAAGAGCUACAGAGUCAGCAUACCCAUUGUGCCCAGGACCUG", "log2 enrichment": -0.221}
{"Oligonucleotide": "AAGUCCUGUGCUACACAUCGUAUGUACCGAAUCGGGAAAAGGGAAAAGGGGAAAAGGAAAGUAUUAUGUUACGCCGUUCGGAUCUGCACU", "log2 enrichment": -0.232}
{"Oligonucleotide": "UGGGAGGUGGAUUUUGCUUAUUUUUUUAGCUCAUUUCCAGGGGUGGGAAUUUUUUUUUAAUAUGUGUCAUGAAUAAAGUUGUUUUUGAAA", "log2 enrichment": 1.89}
{"Oligonucleotide": "CACAGACAACACGCACCCACACAGACACAGAGGGAAGGGGUUGGGAUGGGGACAGGGUGCACAGCAGGGCGGGGUCGGACCCCAGCCCCU", "log2 enrichment": -0.242}
{"Oligonucleotide": "CCUCAAGUCCUGUGCUACACAUCGUAUGUACCGAAUCGGGUGGGGUGGUGGGGAAAGUAUUAUGUUACGCCGUUCGGAUCUGCACUUCCA", "log2 enrichment": 0.238}
{"Oligonucleotide": "CAAGUCCUGUGCUACACAUCGUAUGUACCGAAUCGGCCCCGGCCCCGGGCCCCGGAAAGUAUUAUGUUACGCCGUUCGGAUCUGCACUUC", "log2 enrichment": -1.24}
{"data": "Series 2", "target": "Histone acetyltransferase KAT6A, winged helix 1, GST fusion (KAT6A, Homo sapiens, UniProt Q92794, residues 1-85)", "technique": "protein binding microarray", "form": "double-stranded DNA, one strand shown", "medium": "in vitro", "tested at": "not given", "notes": "8-mer, flanks averaged, mean of 2 arrays, mostly near background", "reference": "not given", "direction": "higher = stronger binding", "Construct (chain)": "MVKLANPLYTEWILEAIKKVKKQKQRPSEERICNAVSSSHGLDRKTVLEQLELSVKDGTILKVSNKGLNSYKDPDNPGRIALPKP"}
{"Oligonucleotide": "TGGACCAA", "E-score": -0.04}
{"Oligonucleotide": "CCATGGGC", "E-score": -0.149}
{"Oligonucleotide": "GCAGAAAA", "E-score": -0.0932}
{"Oligonucleotide": "AAAAGGAA", "E-score": -0.232}
{"Oligonucleotide": "ACCTTTAT", "E-score": -0.233}
{"Oligonucleotide": "CCGCAACA", "E-score": 0.185}
{"data": "Series 3", "target": "Transcriptional repressor CTCF (CTCF, Homo sapiens, UniProt P49711, residues 1-727, full length assumed)", "technique": "protein-binding microarray", "form": "double-stranded DNA, one strand shown", "medium": "in vitro", "tested at": "not given", "notes": "k-mer, scored over probes, only values ≥0.25", "direction": "higher = stronger binding", "chain of UniProt P49711 (whole entry, looked up)": "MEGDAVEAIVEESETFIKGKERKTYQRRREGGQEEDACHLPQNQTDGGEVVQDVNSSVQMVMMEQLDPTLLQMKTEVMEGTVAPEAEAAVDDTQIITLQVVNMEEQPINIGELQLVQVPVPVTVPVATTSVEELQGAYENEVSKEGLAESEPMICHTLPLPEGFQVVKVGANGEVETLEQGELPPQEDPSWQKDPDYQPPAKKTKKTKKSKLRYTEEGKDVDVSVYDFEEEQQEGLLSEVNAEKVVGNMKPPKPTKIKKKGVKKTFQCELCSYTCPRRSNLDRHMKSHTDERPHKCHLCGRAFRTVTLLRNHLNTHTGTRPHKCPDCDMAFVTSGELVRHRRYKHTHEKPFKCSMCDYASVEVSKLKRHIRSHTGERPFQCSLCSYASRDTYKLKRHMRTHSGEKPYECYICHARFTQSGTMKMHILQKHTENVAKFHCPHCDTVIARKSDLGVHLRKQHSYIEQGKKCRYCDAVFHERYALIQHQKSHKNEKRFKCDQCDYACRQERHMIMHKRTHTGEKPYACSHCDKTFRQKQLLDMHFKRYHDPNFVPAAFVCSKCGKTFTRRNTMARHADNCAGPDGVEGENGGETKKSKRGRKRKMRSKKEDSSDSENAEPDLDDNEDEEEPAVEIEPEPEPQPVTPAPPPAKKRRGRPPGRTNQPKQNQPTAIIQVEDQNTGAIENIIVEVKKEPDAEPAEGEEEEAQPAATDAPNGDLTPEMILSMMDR"}
{"Oligonucleotide": "ATGATCAA", "E-score": 0.26}
{"Oligonucleotide": "TATACTCA", "E-score": 0.332}
{"Oligonucleotide": "CATTTATC", "E-score": 0.28}
{"Oligonucleotide": "ATTATTTA", "E-score": 0.275}
{"Oligonucleotide": "CCCCCTAC", "E-score": 0.285}
{"Oligonucleotide": "TCACAAAA", "E-score": 0.267}
{"Oligonucleotide": "TAGCGCTA", "E-score": 0.307}
{"data": "Single results of other studies"}
{"Molecule": "PhoQ, residues 284 288 289 292 302 303 SVTLVV", "target": "PhoP, residues 12 14 15 18 19 GQALL (Escherichia coli, UniProt P23836)", "test": "Sort-seq, item: YFP reporter", "system": "E. coli", "conditions": "PhoQ-PhoP variant library, together with: 10 µM Mg2+", "scale": "reference: high Mg2+ state, higher = stronger signaling", "measurement": "fold induction", "result": 2.67}
{"note": "For quick reference, copied from above (series 1):"}
{"Oligonucleotide": "GAUCUCCGGGCUCAGUUGCAGAUUCUGGCCAACAUGGACAGCCAGCUAAAAGAGCUACAGAGUCAGCAUACCCAUUGUGCCCAGGACCUG", "log2 enrichment": -0.221}
{"Oligonucleotide": "AAGUCCUGUGCUACACAUCGUAUGUACCGAAUCGGGAAAAGGGAAAAGGGGAAAAGGAAAGUAUUAUGUUACGCCGUUCGGAUCUGCACU", "log2 enrichment": -0.232}
{"Oligonucleotide": "UGGGAGGUGGAUUUUGCUUAUUUUUUUAGCUCAUUUCCAGGGGUGGGAAUUUUUUUUUAAUAUGUGUCAUGAAUAAAGUUGUUUUUGAAA", "log2 enrichment": 1.89}
